Experimental data collected from several papers.
Lines come from different studies, so protocols differ. ± gives the spread as reported.

Substance	cell line	test	test system	setting	scale	endpoint	value
CC1=C(/C=C/C(C)=C/C=C/C(C)=C/C(=O)Nc2ccc(O)cc2)C(C)(C)CCC1	HEK293 expressing MOR	morphine-induced cAMP overshoot, HTRF cAMP	–	1 µM, added: NKH 477 25 nM	relative to: morphine control	efficacy	46%
CC[C@H](C)[C@H](NC(=O)[C@@H](NC(=O)[C@H]1CCCN1)C(C)C)C(=O)N[C@@H](C)C(N)=O	PC-12	Aβ42-induced neurotoxicity, inhibitor, MTT	–	concentration not given, 6 h, 37 °C, peptide to Aβ42 1:2, added: Aβ42 2 µM	relative to: untreated cells	viability	83.5%
C=CCc1cccc(/C=N/NC(=O)CN2CCN(Cc3ccccc3)CC2)c1O	GL-1 cells	annexin V/PI	–	20 µM, 24 h	relative to: vehicle	apoptotic cells increase	~10%
PPAIIIA	rat hippocampal neurons, AKAP150 RNAi, AKAP79 expression	FRAP	peptide, dendritic spines	dose not given, 32 °C	–	mobile fraction CN-YFP	77.1 ± 0.8%
Brc1ccc(Oc2ccc(Br)cc2Br)c(Br)c1	human iPSC-derived cardiomyocytes	calcium flux	–	10 µM, 30 min	–	inotropic effect	positive
COC(=O)Nc1cccc(OC(=O)Nc2cccc(C)c2)c1	HepG2	Seahorse respirometry	–	concentration not given, 1 h, dosed at MMP IC50, added: 1 µM FCCP	relative to: basal	OCR	174 ± 1.01%
CC[C@@]1(O)C(=O)OCc2c1cc1n(c2=O)Cc2cc3ccccc3nc2-1	Caco-2	efflux (basolateral to apical), substrate	–	without etoposide	–	Km	173 µM
CN(C)c1ccc(C(=C2C=CC(=[N+](C)C)C=C2)c2ccc(N(C)C)cc2)cc1	HepG2	Seahorse respirometry	–	concentration not given, 1 h, dosed at MMP IC50, added: 1 µM FCCP	relative to: basal	OCR	87.5 ± 0.9%
CC(C)OC(=O)[C@H](C)N[P@](=O)(OC[C@H]1O[C@@](C#N)(c2ccc3c(N)ncnn23)[C@H](O)[C@@H]1O)Oc1ccccc1	BEAS-2B	measured: remdesivir triphosphate	–	10 µM, 48 h, added: telaprevir 5 µM	relative to: without telaprevir	reduction of metabolite formation	~100%
RRRRRRRRGGTTLFF	EL4	–	peptide	concentration not given, 30 min preincubation, 48 h, added: anti-CD3/anti-CD28	relative to: control peptide	IL-2 production	inhibited
[Met(O)35]Aβ42	rat primary cortical neurons	TUNEL	–	10 µM, 48 h	–	apoptotic cells	13 ± 0.7%
O=C1C[C@@H](c2ccc(O)cc2)Oc2cc(O)cc(O)c21	J-Lat 10.6 cells	measured: GFP-positive cells	–	10 µM, 21 days, spontaneous, after wash-out	relative to: DMSO 0.1%	inhibition of latency reversal	≤ 31.5%
C=C1[C@@H](C)[C@H]2[C@H](Cc3ccccc3)NC(=O)[C@]23[C@H](OC(C)=O)/C=C/[C@@](C)(O)C(=O)[C@@H](C)C/C=C/[C@H]3[C@@H]1O	MCEC mouse	transfection reporter gene	–	5.0 µg/mL, 1 h	relative to: vehicle	inhibition	89.3%
CCC[C@H](N)C(=O)N[C@H](C(=O)N[C@H](C(=O)N[C@@H](C)C(N)=O)[C@@H](C)CC)C(C)C	PC-12	Aβ42-induced neurotoxicity, inhibitor, MTT	–	concentration not given, 6 h, 37 °C, peptide to Aβ42 1:2, added: Aβ42 2 µM	relative to: untreated cells	viability	86.1%
O=c1cc(-c2ccc(O)cc2)oc2cc(O)cc(O)c12	J-Lat 10.6 cells	measured: GFP-positive cells	–	10 µM, 21 days, spontaneous, after wash-out	relative to: DMSO 0.1%	inhibition of latency reversal	86.7 ± 11.7%
O=c1cc(-c2ccc(O)cc2)oc2cc(O)cc(O)c12	HepG2	Seahorse respirometry	–	concentration not given, 1 h, dosed at MMP IC50, added: 1 µM FCCP	relative to: basal	OCR	144.9 ± 0.66%
COP(=O)(OC)OCc1ccc(C=O)o1	human sickle red blood cells	sickling	–	2 mM, 2 h, 37 °C, hematocrit 20%, 4% oxygen	–	inhibition	8.4 ± 5.9%
CC(C)c1ccc2c(c1)CC[C@H]1[C@](C)(CN)CCC[C@]21C	MEL-JUSO	cell growth or viability, MTS	–	72 h	–	IC50	3.07 µM
COC(=O)/C=C/c1cc(O)ccc1O	A549 EGFR reporter cells	EGFR-induced granule formation	–	10 µM, added: 500 nM EGF	negative means activation	inhibition	-24%
CC(C(O)c1ccc(O)cc1)N1CCC(Cc2ccccc2)CC1.CC(C(O)c1ccc(O)cc1)N1CCC(Cc2ccccc2)CC1.O=C(O)C(O)C(O)C(=O)O (stereo not drawn)	HEK293 expressing MOR	morphine-induced cAMP overshoot, HTRF cAMP	–	1 µM, added: NKH 477 25 nM	relative to: morphine control	efficacy	87%

Substance	cell line	test	test system	setting	scale	endpoint	value
COc1c(Nc2cc(C)[nH]n2)nc(Sc2ccc(S(=O)(=O)Cc3cccc([N+](=O)[O-])c3F)cc2F)nc1N1CCOCC1	RPE1, inducible TRIM37 knockout	measured: centrobin condensates	–	concentration not given	–	single-condensate cells	94%
amyloid beta-42 Met35-sulfone	rat primary cortical neurons	LDH release	–	10 µM, 48 h	relative to: medium control	viability decrease	24 ± 3%
ryanodine	rat hypothalamic neurons	fura-2 imaging	–	5 µM, 15 min, added: INSL7 C-peptide 100 nM	–	cytosolic Ca2+	no effect
CCCCNC(=O)OCC#CI	human iPSC-derived cardiomyocytes	beat peak frequency	–	30 min	–	lowest effective concentration	10 µM
O=C(N[C@H]1CN2CCC1CC2)c1cc2cccc(Br)n2c1	PC-12	–	–	concentration not given, 7 min, added: PNU-120596 1 µM pre-incubation 10 min	relative to: untreated	pERK/tERK ratio, maximal increase	3 to 4 fold
Nc1cccc2c(N)cccc12	HepG2	Seahorse respirometry	–	concentration not given, 1 h, dosed at MMP IC50, added: 1 µM FCCP	relative to: basal	OCR	194 ± 2.33%
O=C1CC[C@@]2(O)[C@H]3Cc4ccc(O)c5c4[C@@]2(CCN3CC2CC2)[C@H]1O5	HEK293 expressing MOR	morphine-induced cAMP overshoot, HTRF cAMP	–	1 µM, added: NKH 477 25 nM	relative to: morphine control	Emax	102%
CC[C@H](C)[C@H](NC(=O)[C@@H](NC(=O)[C@@H](N)Cc1ccccc1)C(C)C)C(=O)N[C@@H](C)C(N)=O	PC-12	Aβ42-induced neurotoxicity, inhibitor, MTT	–	concentration not given, 6 h, 37 °C, peptide to Aβ42 1:2, added: Aβ42 2 µM	relative to: untreated cells	viability	95.7%
Clc1ccc(C(c2ccc(Cl)cc2)C(Cl)(Cl)Cl)cc1	human iPSC-derived cardiomyocytes	beating frequency	–	30 min	–	lowest active concentration	3 µM
CC[C@H](C)[C@H](NC(=O)[C@H](CCCCN)NC(=O)[C@@H](NC(=O)[C@H](CCC(N)=O)NC(=O)[C@H](CCCNC(=N)N)NC(=O)[C@@H](N)CC(=O)O)[C@@H](C)CC)C(=O)N[C@@H](Cc1c[nH]c2ccccc12)C(=O)N[C@@H](Cc1ccccc1)C(=O)N[C@@H](CCC(N)=O)C(=O)N[C@@H](CC(N)=O)C(=O)N[C@@H](CCCNC(=N)N)C(=O)N[C@@H](CCCNC(=N)N)C(=O)N[C@@H](CCSC)C(=O)N[C@@H](CCCCN)C(=O)N[C@@H](Cc1c[nH]c2ccccc12)C(=O)N[C@@H](CCCCN)C(=O)N[C@@H](CCCCN)C(=O)N[C@H](C(=O)N[C@@H](C)C(=O)N[C@@H](CC(C)C)C(=O)N[C@@H](CC(=O)O)C(=O)N[C@@H](Cc1c[nH]c2ccccc12)C(=O)N[C@@H](CO)C(=O)N[C@@H](Cc1c[nH]c2ccccc12)C(=O)N[C@@H](CC(C)C)C(=O)N[C@@H](CCC(N)=O)C(=O)N[C@H](C(=O)N[C@@H](CCC(=O)O)C(=O)O)[C@@H](C)O)[C@@H](C)O	rheumatoid arthritis synovial fibroblasts	–	–	concentration not given, added: IL-1β	–	p38 MAPK pathway activation	no effect
CC[C@H](C)[C@H](NC(=O)[C@@H](NC(=O)[C@@H](N)C(C)C)C(C)C)C(=O)N[C@@H](CC(C)C)C(N)=O	PC-12	Aβ42-induced neurotoxicity, inhibitor, MTT	–	concentration not given, 6 h, 37 °C, peptide to Aβ42 1:2, added: Aβ42 2 µM	relative to: untreated cells	viability	71.7%
C=C1C(=O)O[C@H]2[C@H]1CC/C(C)=C/CC[C@@]1(C)O[C@@H]21	HEK293 expressing MOR	morphine-induced cAMP overshoot, HTRF cAMP	–	1 µM, added: NKH 477 25 nM	relative to: morphine control	Emax	191%
CC[C@@H](C(=O)[C@@H](C)[C@@H](O)[C@H](C)[C@@H]1O[C@@H]([C@@H](CC)C(=O)O)CC[C@@H]1C)[C@H]1O[C@]2(C=C[C@@H](O)[C@]3(CC[C@@](C)([C@H]4CC[C@](O)(CC)[C@H](C)O4)O3)O2)[C@H](C)C[C@@H]1C	MDA-MB-231	–	–	half IC50, 24 h	relative to: untreated	colony formation	92%
O=C(/C=C/c1ccc2c(c1)OCO2)NCCCc1ccccc1	Raji	TPA-induced EBV-EA expression, inhibitor	–	100-fold molar ratio to TPA, 48 h, added: TPA 32 pmol/mL	relative to: TPA control	EBV-EA positive cells	81.3 ± 2.4%
CC1(COc2cc(C(F)(F)F)cc(C(F)(F)F)c2)CC(=O)CC(=O)C1	rat primary cortical neurons	cell viability	–	up to 100 µM, added: MG132 100 nM	–	neuroprotection	inactive
O=c1c(-c2ccc(O)cc2)coc2cc(O)cc(O)c12	HepG2	Seahorse respirometry	–	concentration not given, 1 h, dosed at MMP IC50, added: 1 µM FCCP	relative to: basal	OCR	90.29 ± 0.37%
CC(C)=CCC[C@]1(C)C=Cc2c(O)c3c(c(CC=C(C)C)c2O1)O[C@]12C(=C[C@@H]4C[C@H]1C(C)(C)O[C@@]2(C/C=C(/C)C(=O)N[C@@H](CS)C(=O)N[C@@H](Cc1ccc(O)cc1)C(=O)NCC(=O)N[C@@H](CCCNC(=N)N)C(=O)N[C@@H](CCCCN)C(=O)N[C@@H](CCCCN)C(=O)N[C@@H](CCCNC(=N)N)C(=O)N[C@@H](CCCNC(=N)N)C(=O)N[C@@H](CCC(N)=O)C(=O)N[C@@H](CCCNC(=N)N)C(=O)N[C@@H](CCCNC(=N)N)C(=O)N[C@@H](CCCNC(=N)N)C(=O)O)C4=O)C3=O	EJ	annexin V/PI flow cytometry	–	1.0 µM, 24 h, added: 5 mM NAC pretreatment 2 h	–	apoptotic cells	9 ± 1.3%
O=C=Nc1ccc(Cl)c(Cl)c1	HepG2	Seahorse respirometry	–	concentration not given, 1 h, dosed at MMP IC50, added: 1 µM FCCP	relative to: basal	OCR	260 ± 2.92%
CO[C@@H]1C[C@@H](C[C@H]2CC[C@H](C)[C@H]([C@@H](C)C(=O)O)O2)O[C@]2(O[C@](C)([C@H]3CC[C@@](C)([C@@H]4O[C@@H]([C@H]5O[C@@](O)(CO)[C@H](C)C[C@@H]5C)C[C@@H]4C)O3)C[C@H]2C)[C@@H]1C	HK sheep red cells	–	–	0.03 µM, pH 7.4, 37 °C, unit not given, added: low-K medium	relative to: untreated cells	Na+ content change	18
